Measured values gathered from unrelated publications.
Several values in a cell are separate wells, animals, samples, runs or records. ± gives the spread as reported.
Voltage-dependent P/Q-type calcium channel subunit alpha-1A: Voltage-dependent P/Q-type calcium channel subunit alpha-1A (Homo sapiens, UniProt O00555)
UCHL1: Ubiquitin carboxyl-terminal hydrolase isozyme L1 (UCHL1, Homo sapiens, UniProt P09936)
CDK13: Cyclin-dependent kinase 13 (CDK13, Homo sapiens, UniProt Q14004)
TOP2B: DNA topoisomerase 2-beta (TOP2B, Homo sapiens, UniProt Q02880)

SMILES | target or system | test | test system | setting | scale | measurement | value
CC[C@@H]1[C@H](F)C(=O)N[C@@H]1COc1nccc2cc(C(N)=O)c(OC)cc12 | Serine/threonine-protein kinase PLK1 (PLK1, Homo sapiens, UniProt P53350) | ATP-site probe binding, ActivX profiling | THP-1 cell lysate | 0.04 mM, Lys2 site |  | inhibition | 3.7%
CC12CC3CC(C)(C1)CC(N)(C3)C2 | Voltage-dependent P/Q-type calcium channel subunit alpha-1A | ion current, antagonist | HEK293 | 10 µM |  | inhibition | 26%
Oc1ccc(/C=C/c2cc(O)cc(O)c2)cc1 | O-methyltransferase (Sorghum bicolor, UniProt A0A1B6PFV1) | ITC |  | with: MTA+ |  | -TΔS | 5.76 kcal/mol
Nc1ncnc2c1ncn2[C@@H]1O[C@H](COP(=O)(O)OP(=O)(O)OP(=O)(O)O)[C@@H](O)[C@H]1O | P2X purinoceptor 7 (P2rx7, Rattus norvegicus, UniProt Q64663, Q143A) | ion current, agonist, two-electrode voltage clamp | Xenopus laevis oocytes | 55 µM | baseline: highest concentration response | normalized current | 0.232 and 0.273 and 0.144
C[C@@H](c1ccc(-n2cnc3c(N)ncnc32)cc1)N1CCc2nn(C)c(Cc3ccccc3)c2C1=O | Hepatocyte growth factor receptor (MET, Homo sapiens, UniProt P08581, Y1235D) | KINOMEscan |  | 0.1 µM | baseline: DMSO control | remaining binding | 79%
CC/C=C(\C)C=O | Uncharacterized protein PH0856 (Pyrococcus horikoshii, UniProt O58586) | substrate, biocatalytic transformation |  | pH 7, 30 °C, anaerobic, with: NADPH |  | conversion | 80%
O=C(CCl)Nc1nc2c(s1)CCc1ccccc1-2 | UCHL1 | covalent, intact protein LC-MS |  | 12.5 µM |  | labelling | 14.6%
O=S(=O)(NCC(O)c1c(F)cccc1Cl)c1cccc(Cl)c1O (stereo not shown) | malate dehydrogenase | enzyme activity, inhibitor |  | 200 µM, pH 7.0, 1% DMSO, aggregation counter-screen |  | remaining activity | 86%
CCCN1C[C@H](CSC)C[C@@H]2c3cccc4[nH]cc(c34)C[C@H]21 | Voltage-dependent P/Q-type calcium channel subunit alpha-1A | ion current, antagonist | HEK293 | 3 µM |  | inhibition | 2%
CC(=C/C(=O)O)/C=C/C=C(\C)C1C=C2C(C)(C)CCCC2(C)O1 (stereo not shown) | Rhodopsin (RHO, Homo sapiens, UniProt P08100, P23H) | ER retention, immunostaining co-localization, refers to: opsin with calnexin | COS-7 transfected P23H | 1.00 µM |  | Pearson correlation coefficient | 0.74
Cn1ncc(S(=O)(=O)NC(c2ccc(Cl)cc2)c2cccs2)c1C(=O)O (stereo not shown) | malate dehydrogenase | enzyme activity, inhibitor |  | 200 µM, pH 7.0, 1% DMSO, aggregation counter-screen |  | remaining activity | 81%
COc1ccccc1/C=C/CN1CCCC(CCC(=O)NCc2ccccc2F)C1 (stereo not shown) | Trypanosoma cruzi | reporter translation, Renilla luciferase mRNA translation | cell-free extract | 40 µM | baseline: DMSO | inhibition | -1.1%
CCN(c1ccc(C(=O)CCl)cc1)S(C)(=O)=O | UCHL1 | covalent, intact protein LC-MS |  | 12.5 µM |  | labelling | 34.2%
CCOC(=O)C(CC(C)CC)NS(=O)(=O)c1cccc(Cl)c1O (stereo not shown) | malate dehydrogenase | enzyme activity, inhibitor |  | 200 µM, pH 7.0, 1% DMSO, aggregation counter-screen |  | remaining activity | 99%
COc1cc(Nc2ncc3c(n2)-c2ccc(Cl)cc2C(c2c(F)cccc2OC)=NC3)ccc1C(=O)O | NTRK3 | kinase activity |  | 1 µM |  | remaining activity | 9%
C=CC(=O)N1CCC(COCC(=O)N2CCN(c3nc(-c4cnc(N)nc4C(F)F)nc(N4CCOC[C@@H]4C)n3)CC2)CC1 | Phosphatidylinositol 4,5-bisphosphate 3-kinase catalytic subunit alpha isoform (PIK3CA, Homo sapiens, UniProt P42336, C420R) | KINOMEscan |  | 1 µM |  | remaining binding | 0%
O=C(CCn1c(=O)[nH]c(=O)c2ccccc21)NCCNC(=O)c1cnc2ccccc2c1 | Poly [ADP-ribose] polymerase tankyrase-1 (TNKS, Homo sapiens, UniProt O95271) | enzyme activity, inhibitor |  |  |  | ligand efficiency | 0.48
COc1cccc2c(Nc3ccc4[nH]c(C(=O)N/N=C/c5ccc(SC)cc5)cc4c3)cc(C)nc12 | Thyroid hormone receptor alpha (THRA, Homo sapiens, UniProt P10827) | reporter gene, Gal4 hybrid reporter |  | 3 µM | baseline: vehicle | activation | 0.91 fold
Nc1nc2c(ncn2[C@@H]2O[C@H](COP(=O)(O)O)[C@@H](O)[C@H]2O)c(=O)[nH]1 | GUK1 (Homo sapiens, UniProt Q16774, R148A) | enzyme activity, NADH-coupled |  | 2000 µM |  | reaction rate | 1.1 s⁻¹ and 0.71 s⁻¹ and 1.68 s⁻¹
C=CC(=O)N1CCC(C(=O)NCC(=O)N2CCN(c3nc(-c4cnc(N)nc4C(F)F)nc(N4CCOCC4)n3)CC2)CC1 | CDK13 | KINOMEscan |  | 1 µM |  | remaining binding | 95%
O=C(O)c1ccc(O)cc1 | BEST1 (Homo sapiens, UniProt O76090) | whole-cell patch clamp | HEK293 transiently expressing channel | concentration not given, membrane potential -100 mV |  | current density | -23.9 pA/pF and -36.8 pA/pF and -23.2 pA/pF and -33.3 pA/pF and -42.7 pA/pF and -40.9 pA/pF
CCCN(CCC)CCc1cccc2c1CC(=O)N2 | Voltage-dependent P/Q-type calcium channel subunit alpha-1A | ion current, antagonist | HEK293 | 30 µM |  | inhibition | 10%

SMILES | target or system | test | test system | setting | scale | measurement | value
CN1C(=C(C#N)C(=O)CCl)Sc2ccccc21 | UCHL1 | covalent, intact protein LC-MS |  | 12.5 µM |  | labelling | 12.8%
CN(C)C(=O)C(CCN1CCC(O)(c2ccc(Cl)cc2)CC1)(c1ccccc1)c1ccccc1 | Calcium-activated potassium channel subunit alpha-1, with LRRC26 γ1 subunit (KCNMA1, Homo sapiens, UniProt Q12791) | BK current, inside-out patch clamp | excised membrane patch | 1 µM, γ1 coexpressed, individual fits, with: nominally 0 Ca2+ cytosolic |  | effective gating valence | 1.38 ± 0.2 elementary charges
Oc1ccc([C@@H]2c3c(O)cc(O)cc3[C@@H]3c4c(cc(O)c5c4[C@@H]2[C@H](c2ccc(O)cc2)[C@H]5c2cc(O)cc4c2[C@@H](c2cc(O)cc(O)c2)[C@H](c2ccc(O)cc2)O4)O[C@H]3c2ccc(O)cc2)cc1 | Alpha-amylase 1A (AMY1A, Homo sapiens, UniProt P0DUB6) | enzyme activity, inhibitor | salivary |  |  | cooperativity factor alpha | 5.7
CCOC(=O)c1c(NC(=O)CNC(C)C)sc2c1CCCCC2 | Glycogen synthase kinase-3 beta, with Nav1.6 (GSK3B, Homo sapiens, UniProt P49841) | protein assembly, split-luciferase complementation | HEK293 | 50 µM | baseline: DMSO | luminescence | 65.3 ± 0.7%
CC(=O)Nc1ccc(NC(=O)C(C#N)=Cc2cc(F)ccc2F)cc1 | UCHL1 | covalent, intact protein LC-MS |  | 12.5 µM |  | labelling | 37.4%
Cc1cc2nc3c(=O)[nH]c(=O)nc-3n(C[C@H](O)[C@H](O)[C@H](O)COP(=O)(O)OP(=O)(O)OC[C@H]3O[C@@H](n4cnc5c(N)ncnc54)[C@H](O)[C@@H]3O)c2cc1C | Acyl-coenzyme A oxidase acox-1.1 (acox-1.1, Caenorhabditis elegans, UniProt O62140) | UV spectroscopy |  |  |  | enzyme bound with compound | 52% and 26% and 48.7% and 49% and 51% and 43.7% and 53%
O=S(=O)(Nc1ccc(OC2CCOC2)nc1)c1cccc(Cl)c1O (stereo not shown) | malate dehydrogenase | enzyme activity, inhibitor |  | 200 µM, pH 7.0, 1% DMSO, aggregation counter-screen |  | remaining activity | 102%
C#CCCC1(CC[C@H](NC(=O)NCCCCCCNC(=O)NCCNC(=O)COc2cccc([C@@H](CCc3ccc(OC)c(OC)c3)OC(=O)[C@@H]3CCCCN3C(=O)C(=O)C(C)(C)CC)c2)C(N)=O)N=N1.O=C(O)C(F)(F)F | Peptidyl-prolyl cis-trans isomerase FKBP1A (FKBP1A, Homo sapiens, UniProt P62942) | photoaffinity labeling, in-gel fluorescence, refers to: Alexa Fluor 647 click label |  | 0.4 µM, UV irradiation 365 nm | higher = more labeling | probe labeling fluorescence | 16900 a.u.
O=C(NC1CCC1)c1ccc2nc(-c3cccc(NS(=O)(=O)NCCN4CCCCC4)c3)cn2c1 | CDK13 | enzyme activity |  | 10 µM |  | remaining activity | 100%
NS(=O)(=O)c1cccc(N2C(=O)C=CC2=O)c1 | UCHL1 | covalent, intact protein LC-MS |  | 12.5 µM |  | labelling | 9.44%
c1coc(-c2n[nH]cc2-c2ccnc3ccccc23)c1 | Serine/threonine-protein kinase BUR1 (CRK1, Candida albicans, UniProt Q9Y7W4) | kinase binding, MIB/MS competition | Candida albicans lysate | 1 µM | baseline: DMSO, negative = stronger binding | log2 fold change | 0.13
N[C@@H](CCC(=O)O)C(=O)O | glc-2 (Caenorhabditis elegans, UniProt Q17328, R340A/R342A/S341A/T283S) | two-electrode voltage clamp | Xenopus laevis oocytes |  |  | mean current | 0.6 µA
Cc1nc(CSc2nc(SCc3ccc(C(C)C)cc3)nc(=O)[nH]2)cs1 | TOP2B | decatenation |  | 15.6 µM, replicate 2 |  | decatenated DNA | 100%
Nc1ncnc2c1ncn2[C@@H]1O[C@H](COP(=O)(O)CP(=O)(O)OP(=O)(O)O)[C@@H](O)[C@H]1O | P2X purinoceptor 1 (P2RX1, Homo sapiens, UniProt P51575, E122A) | saturation binding | HEK293 | 1 nM |  | specific binding | 10 CCPM and 11.5 CCPM
O=c1nc(SCc2cc(F)cc(C(F)(F)F)c2)nc(SCc2ccc3sccc3c2)[nH]1 | TOP2B | decatenation |  | 125 µM, replicate 1 |  | decatenated DNA | 0%
N#Cc1c(NC(=O)C=CC(=O)O)sc2c1CCC2 | UCHL1 | covalent, intact protein LC-MS |  | 12.5 µM |  | labelling | 28.3%
Cc1cc(Oc2ncccc2CN2CCN(c3cccc(Cl)c3)CC2)ccc1-c1c(C)c(=O)[nH]c(=O)n1C | Alpha-2C adrenergic receptor (ADRA2C, Homo sapiens, UniProt P18825) | binding, radioligand binding |  | with: [3H]rauwolscine | baseline: Ki alpha2B over Ki alpha2C | selectivity ratio | 6
N#CC(=Cc1c(F)c(F)c(F)c(F)c1F)C(=O)NC1CCCCC1 | UCHL1 | covalent, intact protein LC-MS |  | 12.5 µM |  | labelling | 35.3%
CC[C@@H](C)[C@@H](NC(=O)[C@@H](Cc1ccc(O)cc1)NC(=O)[C@H]1CCCN1C(=O)[C@@H](CCCNC(=N)N)NC(=O)[C@H](N)Cc1c[nH]cn1)C(=O)N[C@H](C)C(=O)N[C@H](Cc1c[nH]cn1)C(=O)N[C@H](CCCNC(=N)N)C(=O)N[C@@H](C(=O)N[C@H](Cc1ccc(O)cc1)C(=O)N[C@H](CO)C(=O)N[C@H](Cc1ccccc1)C(N)=O)C(C)C | Transferrin receptor protein 1 (Tfrc, Mus musculus, UniProt Q62351) | flow cytometry | RAW264.7 | 24 h, pH 6, replicate 3, unit not given | baseline: 0 h | surface TFRC expression | 0.927
CC(=O)c1cccc(S(=O)(=O)N2CCN(C(=O)CCl)CC2)c1 | UCHL1 | covalent, intact protein LC-MS |  | 12.5 µM |  | labelling | 13.1%
O=C1CC2(CCCC2)CC(=O)N1CCCCN1CCN(c2ncccn2)CC1 | Voltage-dependent P/Q-type calcium channel subunit alpha-1A | ion current, antagonist | HEK293 | 3 µM |  | inhibition | 7%

For quick reference, copied from above:
SMILES | target or system | test | test system | setting | scale | measurement | value
CC(=C/C(=O)O)/C=C/C=C(\C)C1C=C2C(C)(C)CCCC2(C)O1 (stereo not shown) | Rhodopsin (RHO, Homo sapiens, UniProt P08100, P23H) | ER retention, immunostaining co-localization, refers to: opsin with calnexin | COS-7 transfected P23H | 1.00 µM |  | Pearson correlation coefficient | 0.74
Cn1ncc(S(=O)(=O)NC(c2ccc(Cl)cc2)c2cccs2)c1C(=O)O (stereo not shown) | malate dehydrogenase | enzyme activity, inhibitor |  | 200 µM, pH 7.0, 1% DMSO, aggregation counter-screen |  | remaining activity | 81%
COc1ccccc1/C=C/CN1CCCC(CCC(=O)NCc2ccccc2F)C1 (stereo not shown) | Trypanosoma cruzi | reporter translation, Renilla luciferase mRNA translation | cell-free extract | 40 µM | baseline: DMSO | inhibition | -1.1%
